Published values collected from several papers.
Values joined by “and” are separate records of one study, mostly repeats; a detail may differ. ± gives the spread as reported.
P2RX4: P2X purinoceptor 4 (P2RX4, Homo sapiens, UniProt Q99571)
Sequence of UniProt Q99571 (whole entry, looked up): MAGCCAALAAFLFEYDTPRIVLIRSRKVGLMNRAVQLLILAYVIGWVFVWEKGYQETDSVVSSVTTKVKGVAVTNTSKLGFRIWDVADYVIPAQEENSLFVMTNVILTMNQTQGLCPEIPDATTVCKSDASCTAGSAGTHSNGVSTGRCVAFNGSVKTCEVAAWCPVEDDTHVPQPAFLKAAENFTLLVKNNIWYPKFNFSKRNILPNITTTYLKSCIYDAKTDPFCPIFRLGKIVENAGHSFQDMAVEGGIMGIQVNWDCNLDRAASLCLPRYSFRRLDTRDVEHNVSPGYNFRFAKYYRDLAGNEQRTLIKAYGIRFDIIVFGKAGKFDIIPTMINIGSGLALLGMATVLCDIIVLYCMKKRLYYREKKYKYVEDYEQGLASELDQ
USP16 ZnF-UBD domain: Ubiquitin carboxyl-terminal hydrolase 16, ZnF-UBD domain (USP16, Homo sapiens, UniProt Q9Y5T5)
Sequence of UniProt Q69ZF3 (whole entry, looked up): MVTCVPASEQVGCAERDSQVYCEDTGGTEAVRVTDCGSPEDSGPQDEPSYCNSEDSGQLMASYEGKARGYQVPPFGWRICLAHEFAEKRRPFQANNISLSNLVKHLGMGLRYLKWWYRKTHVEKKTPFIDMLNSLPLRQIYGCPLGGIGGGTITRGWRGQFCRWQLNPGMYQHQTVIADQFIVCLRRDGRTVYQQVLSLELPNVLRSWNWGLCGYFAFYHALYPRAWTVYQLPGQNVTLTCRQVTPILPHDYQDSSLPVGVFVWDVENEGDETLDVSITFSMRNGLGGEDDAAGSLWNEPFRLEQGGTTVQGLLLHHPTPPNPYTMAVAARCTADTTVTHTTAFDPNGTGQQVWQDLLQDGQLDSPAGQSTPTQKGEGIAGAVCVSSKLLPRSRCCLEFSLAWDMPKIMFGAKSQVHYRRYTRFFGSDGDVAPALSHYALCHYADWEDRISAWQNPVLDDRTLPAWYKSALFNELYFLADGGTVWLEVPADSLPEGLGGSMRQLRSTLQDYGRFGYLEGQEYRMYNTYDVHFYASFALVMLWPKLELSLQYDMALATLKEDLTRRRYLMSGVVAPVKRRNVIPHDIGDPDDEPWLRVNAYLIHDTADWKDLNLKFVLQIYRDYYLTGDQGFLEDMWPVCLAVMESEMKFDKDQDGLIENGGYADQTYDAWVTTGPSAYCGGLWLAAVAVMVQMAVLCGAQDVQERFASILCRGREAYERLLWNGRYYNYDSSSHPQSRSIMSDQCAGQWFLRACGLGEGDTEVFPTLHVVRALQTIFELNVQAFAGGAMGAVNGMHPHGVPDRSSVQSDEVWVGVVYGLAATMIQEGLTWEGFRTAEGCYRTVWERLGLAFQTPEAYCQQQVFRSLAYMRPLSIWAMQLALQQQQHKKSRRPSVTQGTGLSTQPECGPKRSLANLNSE
Sequence of UniProt Q9Y5T5 (whole entry, looked up): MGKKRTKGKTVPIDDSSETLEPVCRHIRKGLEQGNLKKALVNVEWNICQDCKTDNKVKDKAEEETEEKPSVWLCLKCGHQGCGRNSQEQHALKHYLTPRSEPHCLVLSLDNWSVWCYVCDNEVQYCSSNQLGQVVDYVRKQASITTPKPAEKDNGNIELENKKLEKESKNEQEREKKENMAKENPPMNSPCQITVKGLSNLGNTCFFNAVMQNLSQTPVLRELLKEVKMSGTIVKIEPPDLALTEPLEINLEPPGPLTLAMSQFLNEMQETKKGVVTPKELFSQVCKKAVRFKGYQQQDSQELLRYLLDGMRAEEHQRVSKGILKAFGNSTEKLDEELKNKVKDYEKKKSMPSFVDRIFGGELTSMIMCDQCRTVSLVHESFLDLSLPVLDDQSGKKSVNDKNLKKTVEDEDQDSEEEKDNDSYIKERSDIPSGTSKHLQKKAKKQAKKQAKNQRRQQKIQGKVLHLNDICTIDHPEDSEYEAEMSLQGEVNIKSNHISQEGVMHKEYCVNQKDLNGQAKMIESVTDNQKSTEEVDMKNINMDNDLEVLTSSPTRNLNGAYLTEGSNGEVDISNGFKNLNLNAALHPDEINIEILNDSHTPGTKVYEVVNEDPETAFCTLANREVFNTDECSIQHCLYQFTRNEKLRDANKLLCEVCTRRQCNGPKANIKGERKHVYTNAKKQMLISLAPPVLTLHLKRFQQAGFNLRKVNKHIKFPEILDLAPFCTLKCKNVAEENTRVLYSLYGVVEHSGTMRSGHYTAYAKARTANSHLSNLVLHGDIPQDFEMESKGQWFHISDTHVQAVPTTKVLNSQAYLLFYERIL
Sequence of UniProt Q9R1P1 (whole entry, looked up): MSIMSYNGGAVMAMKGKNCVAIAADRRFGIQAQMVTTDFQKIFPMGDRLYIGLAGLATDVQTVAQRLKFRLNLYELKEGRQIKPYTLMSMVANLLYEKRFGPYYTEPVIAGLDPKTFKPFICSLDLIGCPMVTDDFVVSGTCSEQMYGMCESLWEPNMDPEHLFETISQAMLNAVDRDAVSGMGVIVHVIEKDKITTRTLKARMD
Sequence of UniProt Q9NPD5 (whole entry, looked up): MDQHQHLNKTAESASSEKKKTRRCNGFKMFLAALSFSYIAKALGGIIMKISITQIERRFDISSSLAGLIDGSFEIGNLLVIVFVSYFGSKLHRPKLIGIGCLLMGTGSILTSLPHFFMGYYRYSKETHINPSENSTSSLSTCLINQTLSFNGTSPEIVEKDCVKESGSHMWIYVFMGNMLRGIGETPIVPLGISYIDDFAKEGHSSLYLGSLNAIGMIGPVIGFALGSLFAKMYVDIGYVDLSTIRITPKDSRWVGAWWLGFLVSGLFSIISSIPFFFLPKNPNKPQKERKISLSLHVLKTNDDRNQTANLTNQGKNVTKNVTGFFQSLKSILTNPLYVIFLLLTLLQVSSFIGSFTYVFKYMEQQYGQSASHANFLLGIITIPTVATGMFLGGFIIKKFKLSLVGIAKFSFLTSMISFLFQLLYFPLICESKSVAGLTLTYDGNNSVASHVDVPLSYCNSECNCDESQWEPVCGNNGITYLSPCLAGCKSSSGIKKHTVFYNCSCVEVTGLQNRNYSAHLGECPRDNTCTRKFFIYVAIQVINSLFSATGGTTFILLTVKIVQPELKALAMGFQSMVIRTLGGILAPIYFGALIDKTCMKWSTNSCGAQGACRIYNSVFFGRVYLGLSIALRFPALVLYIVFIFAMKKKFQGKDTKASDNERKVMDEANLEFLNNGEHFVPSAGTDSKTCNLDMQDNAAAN
Sequence of UniProt Q6P2M8 (whole entry, looked up): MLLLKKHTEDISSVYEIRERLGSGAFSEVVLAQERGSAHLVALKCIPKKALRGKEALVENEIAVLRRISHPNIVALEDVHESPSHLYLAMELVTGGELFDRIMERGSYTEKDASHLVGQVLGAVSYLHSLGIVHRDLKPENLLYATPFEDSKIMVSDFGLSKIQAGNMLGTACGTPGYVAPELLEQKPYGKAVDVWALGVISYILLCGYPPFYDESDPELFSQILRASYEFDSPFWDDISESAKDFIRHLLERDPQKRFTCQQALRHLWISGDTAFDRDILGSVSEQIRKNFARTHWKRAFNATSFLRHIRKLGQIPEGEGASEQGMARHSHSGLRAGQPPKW
Sequence of UniProt Q9UPC5 (whole entry, looked up): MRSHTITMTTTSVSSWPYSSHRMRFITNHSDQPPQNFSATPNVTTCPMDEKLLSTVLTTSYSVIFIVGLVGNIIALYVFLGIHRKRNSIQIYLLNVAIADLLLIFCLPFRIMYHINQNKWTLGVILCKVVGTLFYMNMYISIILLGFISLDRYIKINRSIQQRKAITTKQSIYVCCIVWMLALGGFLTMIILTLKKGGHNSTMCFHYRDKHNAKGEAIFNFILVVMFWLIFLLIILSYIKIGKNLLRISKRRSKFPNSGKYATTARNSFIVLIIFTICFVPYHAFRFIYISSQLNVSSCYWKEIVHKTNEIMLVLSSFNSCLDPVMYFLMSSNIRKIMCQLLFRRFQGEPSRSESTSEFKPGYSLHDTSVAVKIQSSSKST
Sequence of UniProt Q15131 (whole entry, looked up): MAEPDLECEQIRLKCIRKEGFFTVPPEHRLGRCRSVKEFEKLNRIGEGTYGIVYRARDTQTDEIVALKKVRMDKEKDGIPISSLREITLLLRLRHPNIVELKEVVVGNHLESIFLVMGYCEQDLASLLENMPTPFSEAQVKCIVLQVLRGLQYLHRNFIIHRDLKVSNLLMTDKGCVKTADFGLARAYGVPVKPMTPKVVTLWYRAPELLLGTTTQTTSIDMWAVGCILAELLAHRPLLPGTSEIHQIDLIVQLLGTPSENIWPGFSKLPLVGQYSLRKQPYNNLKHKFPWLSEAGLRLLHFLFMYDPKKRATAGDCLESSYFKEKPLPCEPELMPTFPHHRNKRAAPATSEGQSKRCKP
Sequence of UniProt P10635 (whole entry, looked up): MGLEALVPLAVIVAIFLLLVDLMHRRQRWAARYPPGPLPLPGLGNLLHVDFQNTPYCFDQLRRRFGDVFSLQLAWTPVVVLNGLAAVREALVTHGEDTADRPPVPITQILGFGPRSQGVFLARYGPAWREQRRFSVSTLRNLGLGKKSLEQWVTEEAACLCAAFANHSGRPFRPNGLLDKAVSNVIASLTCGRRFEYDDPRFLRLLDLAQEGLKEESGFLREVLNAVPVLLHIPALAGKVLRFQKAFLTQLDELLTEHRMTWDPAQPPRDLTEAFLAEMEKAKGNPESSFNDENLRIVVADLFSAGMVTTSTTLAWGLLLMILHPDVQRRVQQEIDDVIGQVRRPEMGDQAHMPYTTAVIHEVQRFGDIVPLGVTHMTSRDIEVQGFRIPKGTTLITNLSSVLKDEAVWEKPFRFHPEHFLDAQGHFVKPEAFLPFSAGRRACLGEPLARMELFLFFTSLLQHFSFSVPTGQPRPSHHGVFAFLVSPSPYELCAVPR
Sequence of UniProt B7GZW7 (whole entry, looked up): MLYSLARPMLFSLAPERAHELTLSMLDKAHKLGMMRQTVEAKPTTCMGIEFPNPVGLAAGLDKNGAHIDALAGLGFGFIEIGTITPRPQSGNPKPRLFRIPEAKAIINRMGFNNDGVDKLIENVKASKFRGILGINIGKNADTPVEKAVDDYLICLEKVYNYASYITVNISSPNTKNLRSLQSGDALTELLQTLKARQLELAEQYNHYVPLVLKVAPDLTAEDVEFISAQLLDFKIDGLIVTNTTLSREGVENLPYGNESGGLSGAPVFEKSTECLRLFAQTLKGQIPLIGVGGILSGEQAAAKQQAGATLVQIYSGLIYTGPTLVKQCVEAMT

Structure (SMILES) = CC1(C)CC[C@]2(C(=O)O)CC[C@]3(C)C(=CC[C@@H]4[C@@]5(C)C[C@@H](O)[C@H](OC(=O)/C=C/c6ccc(O)cc6)C(C)(C)[C@@H]5CC[C@]43C)[C@@H]2C1 (relative stereo); target or system = Presenilin-1, in γ-secretase complex (PSEN1, Homo sapiens, UniProt P49768); test = Aβ38 production, inhibitor, cell-free γ-secretase; system = HeLa membranes; conditions = with: APP-CTF substrate; quantity = IC50; value = 0.46 µM
Structure (SMILES) = CC(C)C[C@H](NC(=O)[C@H](CCc1ccccc1)NC(=O)CN1CCOCC1)C(=O)N[C@@H](Cc1ccccc1)C(=O)N[C@@H](CC(C)C)C(=O)[C@@]1(C)CO1; target or system = Psmb7/Psmb3, β2 subunit (Mus musculus, UniProt P70195+Q9R1P1); test = proteasome activity, inhibitor; system = Ba/F3 p210; conditions = 1 h pulse; quantity = IC50; value = 0.153 ± 0.0349 µM
Structure (SMILES) = O=C(c1ccc(F)cc1)N1CCNCC1COc1ccc2c(c1)OCO2 (stereo not shown); target or system = P2RX4; test = Ca2+ flux, antagonist; system = human cells expressing P2RX4; conditions = racemate tested; quantity = IC50; value = > 10 µM
Structure (SMILES) = O=C(O)Cc1nc2ccccc2[nH]1; target or system = USP16 ZnF-UBD domain; quantity = Kd; value = > 1000 µM
Structure (SMILES) = CN1CCN(c2ccc(Nc3ncc4cc(C#N)c(=O)n(C5CCCC5)c4n3)cc2)CC1; target or system = Calcium/calmodulin-dependent protein kinase type 1B (PNCK, Homo sapiens, UniProt Q6P2M8); quantity = IC50; value = 2.34 µM
Structure (SMILES) = CCCCCN1C[C@H](O)[C@@H](O)[C@H](O)[C@@H]1CO; target or system = Non-lysosomal glucosylceramidase (Mus musculus, UniProt Q69ZF3); test = GlcCer d18:1/18:0 accumulation, inhibitor; system = mouse primary cerebrocortical cells; conditions = 3 days, upward arm of bell-shaped curve; quantity = IC50; value = 0.0021 µM and 0.002 µM
Structure (SMILES) = O=S(=O)(c1cccnc1Cl)N1CCNCC1COc1ccc2ccccc2c1 (stereo not shown); target or system = P2RX4; test = calcium flux, inhibitor, Ca2+ flux; system = human cells; quantity = IC50; value = 4.07 ± 0.16 µM
Structure (SMILES) = O=C(O)CCC(=O)Nc1ccccc1; target or system = USP16 ZnF-UBD domain; quantity = Kd; value = > 1000 µM
Structure (SMILES) = Fc1ccc(N2CCNCC2COc2ccc3ccccc3c2)cc1 (stereo not shown); target or system = P2RX4; test = calcium flux, inhibitor, Ca2+ flux; system = human cells; quantity = IC50; value = 1.38 ± 0.18 µM
Structure (SMILES) = O=c1nc(N2CCN(CC3CCCCC3)CC2)sc2c([N+](=O)[O-])cc(C(F)(F)F)cc12; target or system = Cytochrome P450 2D6 (CYP2D6, Homo sapiens, UniProt P10635); conditions = 60 (unit not given), pH 7.4; quantity = IC50; value = > 10 µM
Structure (SMILES) = CO[C@H]1/C=C/O[C@@]2(C)Oc3c(C)c(O)c4c(O)c(c(/C=N/N5CCN(C)CC5)c(O)c4c3C2=O)NC(=O)/C(C)=C\C=C\[C@H](C)[C@H](O)[C@@H](C)[C@@H](O)[C@@H](C)[C@H](OC(C)=O)[C@@H]1C; target or system = Solute carrier organic anion transporter family member 1B3 (SLCO1B3, Homo sapiens, UniProt Q9NPD5); test = inhibitor; quantity = IC50; value = 1.6 µM
Structure (SMILES) = C=CC(=O)Nc1cccc(Sc2nc(Nc3ccc(N4CCN(C)CC4)cc3)ncc2Cl)c1; target or system = Probable G-protein coupled receptor 34 (Homo sapiens, UniProt Q9UPC5); test = antagonist, Tango; conditions = with: LysoPS 5 µM; quantity = IC50; value = 5.58 ± 2.17 µM
Structure (SMILES) = Cc1nc2ncnn2c(Nc2ccc(C(F)(F)F)cc2)c1Cl; target or system = Dihydroorotate dehydrogenase (quinone) (pyrD, Acinetobacter baumannii, UniProt B7GZW7); test = enzyme activity, inhibitor, DCIP steady-state rate; quantity = IC50; value = 4.8 ± 1.9 µM
Structure (SMILES) = CCn1c(-c2nc3cc(C(=O)N4CCC[C@@H](N)C4)cc(OC)c3n2C)cc2cccnc21; target or system = Voltage-dependent L-type calcium channel subunit alpha-1C (CACNA1C, Homo sapiens, UniProt Q13936); test = antagonist, intracellular Ca2+ fluorescence; system = human cells; quantity = IC50; value = > 15.8 µM
Structure (SMILES) = CC[C@@H]1[C@H](F)C(=O)N[C@@H]1COc1nccc2cc(C(N)=O)c(OC)cc12; target or system = Cyclin-dependent kinase 10 (CDK10, Homo sapiens, UniProt Q15131); test = ATP-site probe binding, ActivX profiling; system = THP-1 cell lysate; conditions = Lys2 site; quantity = IC50; value = > 5 µM
Structure (SMILES) = Cn1cc(-c2ccc(-c3cncc(Cl)c3N3CCC4(CCNC4=O)CC3)cc2)cn1; target or system = COLO 205; test = gene expression, microarray, refers to: PRKCE mRNA; conditions = concentration not given, 6 h; scale = reference: untreated cells; quantity = log2 fold change; value = 2.27

A few entries again:
Structure (SMILES) = Cn1cc(-c2ccc(-c3cncc(Cl)c3N3CCC4(CCNC4=O)CC3)cc2)cn1; target or system = COLO 205; test = gene expression, microarray, refers to: PRKCE mRNA; conditions = concentration not given, 6 h; scale = reference: untreated cells; quantity = log2 fold change; value = 2.27
